Published values pooled from the literature.
Every numbered part comes from another study and shows a few of its results, in no order.

Set 1 — target: Sox-I, HMG box (Salpingoeca helianthica); method: Spec-seq; molecule type: double-stranded DNA, one strand shown; medium: in vitro; tested at: not given; setting: whole probe, mean of replicates; relative to: not given; direction: lower = stronger binding
Construct (chain): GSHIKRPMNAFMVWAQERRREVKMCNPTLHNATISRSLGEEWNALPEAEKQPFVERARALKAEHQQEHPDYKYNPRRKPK
Sequence	relative binding energy [ln ratio]
GAGTCGTCTCGTCAGCACCATGGCTCCGTAGAGCACTCAGGTC	0.966
GAGTCGTCTCGTCAGCACCTATGTTCCGTAGAGCACTCAGGTC	-0.298
GAGTCGTCTCGTCAGCACCATCTCACCGTAGAGCACTCAGGTC	0.72
GAGTCGTCTCGTCAGCACCATCGTTCCGTAGAGCACTCAGGTC	0.619

Set 2 — method: aptamer microarray, sandwich; molecule type: DNA with 2'F-ANA; medium: in vitro; tested at: 200 nM; with: Cy3 exosite-II aptamer, 400 nM; direction: higher = stronger binding
Target: Prothrombin, mature alpha-thrombin (F2, Homo sapiens, UniProt P00734)
Setting: whole 15-mer aptamer, many near background
Sequence	mean fluorescence intensity [a.u.]
GGTTGGTGTGGTTGG (2'F-ANA at 3 4 5 7 8 9 10 11 14 15)	56.7
GGTTGGTGTGGTTGG (2'F-ANA at 4 5 7 9 10 14 15)	73.9
GGTTGGTGTGGTTGG (2'F-ANA at 1 3 4 7 8 10 11 14 15)	50.5
GGTTGGTGTGGTTGG (2'F-ANA at 1 2 8 12 13 14 15)	71.7

Set 3 — method: protein-binding microarray; molecule type: double-stranded DNA, one strand shown; medium: in vitro; tested at: 2200 nM top; setting: 60-bp whole probe; with: salmon DNA 0.4 mg/ml; relative to: random background probes; direction: higher = stronger binding
Target: Interferon regulatory factor 7, full length, phosphomimetic (IRF7, Homo sapiens, UniProt Q92985, residues 1-503, S471D/S472D/S475D/S476D/S477D/S483D/S484D/S487D)
UniProt Q92985, sequence (whole entry, unmodified, looked up): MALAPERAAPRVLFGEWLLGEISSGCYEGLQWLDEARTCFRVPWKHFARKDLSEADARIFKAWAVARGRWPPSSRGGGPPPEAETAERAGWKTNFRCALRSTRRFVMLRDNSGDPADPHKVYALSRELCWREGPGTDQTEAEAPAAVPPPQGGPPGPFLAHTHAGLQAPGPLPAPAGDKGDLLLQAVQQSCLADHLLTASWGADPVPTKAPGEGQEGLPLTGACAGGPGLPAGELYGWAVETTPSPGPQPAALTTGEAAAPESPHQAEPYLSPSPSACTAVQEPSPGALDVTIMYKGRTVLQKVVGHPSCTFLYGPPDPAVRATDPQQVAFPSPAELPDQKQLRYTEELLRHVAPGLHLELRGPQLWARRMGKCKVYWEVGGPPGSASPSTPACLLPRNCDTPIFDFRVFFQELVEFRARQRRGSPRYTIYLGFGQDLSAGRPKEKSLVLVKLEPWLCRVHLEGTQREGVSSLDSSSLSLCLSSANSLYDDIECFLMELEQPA
Sequence	fitted relative affinity
GCCTAGCACCATTTTAGTAGTTTCTAAAAGTGCTAGGTCTTGATTCGCTTGACGCTGCTG	1.32 z-score
GCCTAGCACTTAAGTATCGGTCTCGGTTAGTGCTAGGTCTTGATTCGCTTGACGCTGCTG	0.811 z-score
GCCTAGCACGATGGTCTCCTTCTCCTGACGTGCTAGGTCTTGATTCGCTTGACGCTGCTG	0.979 z-score
GCCTAGCACTTGGGTATCCTACTGCTTTAGTGCTAGGTCTTGATTCGCTTGACGCTGCTG	0.682 z-score

Other studies, line by line
Molecule	target	assay	system	conditions	scale	endpoint	result
PhoQ, residues 284 288 289 292 302 303 SLANKL	PhoP, residues 12 14 15 18 19 LHSVQ (Escherichia coli, UniProt P23836)	Sort-seq, item: YFP reporter	E. coli	PhoQ-PhoP variant library, with: 10 µM Mg2+	relative to: high Mg2+ state, higher = stronger signaling	fold induction	6.85

For quick reference, copied from above (set 2):
Sequence	mean fluorescence intensity [a.u.]
GGTTGGTGTGGTTGG (2'F-ANA at 4 5 7 9 10 14 15)	73.9
